Measurements pooled from the literature.
Parts stem from different laboratories: compare values within a part only.

Series 1
Target: Ras GTPase-activating protein-binding protein 1, full length (G3BP1, Homo sapiens, UniProt Q13283)
Sequence of UniProt Q13283 (whole entry, looked up): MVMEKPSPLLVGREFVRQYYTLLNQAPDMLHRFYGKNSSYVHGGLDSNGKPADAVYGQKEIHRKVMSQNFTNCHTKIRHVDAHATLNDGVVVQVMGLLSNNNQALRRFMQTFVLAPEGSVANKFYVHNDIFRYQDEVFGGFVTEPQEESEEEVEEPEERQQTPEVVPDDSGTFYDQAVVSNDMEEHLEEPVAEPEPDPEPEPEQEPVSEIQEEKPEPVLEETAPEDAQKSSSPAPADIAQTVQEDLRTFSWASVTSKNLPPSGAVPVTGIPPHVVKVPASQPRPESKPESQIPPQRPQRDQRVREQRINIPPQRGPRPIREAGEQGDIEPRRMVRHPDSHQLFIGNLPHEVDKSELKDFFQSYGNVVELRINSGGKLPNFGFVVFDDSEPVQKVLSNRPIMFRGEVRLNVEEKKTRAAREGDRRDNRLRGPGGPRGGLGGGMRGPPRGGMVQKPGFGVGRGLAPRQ
Method: RNA Bind-n-Seq
Form: RNA
Matrix: in vitro
Tested at: 200 nM
Setting: whole 134-nt RNA, ends assumed
Added: 150 mM LiCl
Reference: input library
Reading: higher = stronger binding
Measurement: log2 enrichment
Library: 7-deaza-guanosine replaces G
Constant ends, left off below: GGGAGUUCUACAGUCCGACGAUC … UGGAAUUCUCGGGUGUCAAGG
UGGCCCUGGUGGCAUGCGGGGAAGAAGAGGUGGCCUCAUGGAUCGUGGUGGUCCCGGUGGAAUGUUCAGAGGUGGCCGUGGUGGAGACAG: 0.369
GUCCUGUGCUACACAUCGUAUGUACCGAAUCGGAAAAAAAGGUUUUUGGAAAAAAAGGAAAGUAUUAUGUUACGCCGUUCGGAUCUGCAC: -1.6
UGGCCCUGGUGGCAUGCGGGGAGGAAGAGGUGGCCUCAUGGAUCGUGGUGGUCCCGGUGGAAUGUUCAGAGGUGGCUGUGGUGGAGACAG: -0.152
CCUCAAGUCCUGUGCUACACAUCGUAUGUACCGAAUCGGGGUUGGUUGGUUGGAAAGUAUUAUGUUACGCCGUUCGGAUCUGCACUUCCA: -0.353
UCCUCAAGUCCUGUGCUACACAUCGUAUGUACCGAAUCGGCGGGCGGGGCGGAAAGUAUUAUGUUACGCCGUUCGGAUCUGCACUUCCAG: 0.989
CACAGACAACACGCACCCACACAGACACAGAGGGAAGGGGUUGGGAUGGGGACAGGGUGCACAGCAGGGCGGGGUAGGACCCCAAACCCU: -1.79
ACCAUGCAGGUGGGCAGCUUUGGGAAGUGGGGCAAGGGGGGGAUAGGGAGGGGGGUAACACUUUGGGAACAGGUGGUCCCAGGUCGUUUC: 0.0646
UGGGAGGUGGAUUUUGUUUAUUUUUUCAGCUCAUUUCCAGGGGUGGGAAUUUUUUUUUAAUAUGUGUCAUGAAUAAAGUUGUUUUUGAAA: -0.269
ACCAUGCAGGUGGGCAUCUUUGGGAAGUGGGGCAAGGGGGGGAUAGGGAGGGAGGUAACACUUUGGGAACAGGUGGUCCCAGGUCGUUUC: 0.332
CCUGUGCUACACAUCGUAUGUACCGAAUCGGUUUUUUGGGGUUUUUUGGGGUUUUUUGGGAAAGUAUUAUGUUACGCCGUUCGGAUCUGC: 0.584
UCAAGUCCUGUGCUACACAUCGUAUGUACCGAAUCGGGAAGGGGAAGGAAGGGGAAAGUAUUAUGUUACGCCGUUCGGAUCUGCACUUCC: -0.28

Series 2
Target: Histone acetyltransferase KAT6A, both winged helices, GST fusion (KAT6A, Homo sapiens, UniProt Q92794, residues 1-181)
Method: protein binding microarray
Form: double-stranded DNA, one strand shown
Matrix: in vitro
Tested at: not given
Setting: 8-mer, flanks averaged, mean of 2 arrays, mostly near background
Reference: not given
Reading: higher = stronger binding
Measurement: E-score
Target sequence (chain): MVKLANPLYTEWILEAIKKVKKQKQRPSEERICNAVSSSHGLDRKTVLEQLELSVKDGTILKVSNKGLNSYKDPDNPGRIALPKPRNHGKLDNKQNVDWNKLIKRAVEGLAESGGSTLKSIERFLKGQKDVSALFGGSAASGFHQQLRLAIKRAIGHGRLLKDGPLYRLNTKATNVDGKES
AAGTTCAT: -0.13
CTGCGATA: -0.0478
CTGTTATA: -0.067
AAAACGGC: 0.259
GGACACCC: -0.0562
GCAAGTGA: -0.103
CAAGTGCC: -0.0391
AGTGCCCC: -0.00825
CTTCTATA: -0.156
ACTCGTAA: 0.0454
GGTGCAGA: -0.0803
ACTGAGTC: -0.0133
TGGGATAA: -0.177
ACGCGGCT: 0.318
ACTCGTAC: -0.0544
GAGAGACA: -0.251
AGAAACGG: 0.226
CACAACGC: 0.127
CTTGAGTA: -0.16
TAAGATCA: -0.0471
ATCTACAA: -0.143

Series 3
Target: Interferon regulatory factor 7, full length, phosphomimetic (IRF7, Homo sapiens, UniProt Q92985, residues 1-503, S101K/S471D/S472D/S475D/S476D/S477D/S483D/S484D/S487D)
Method: protein-binding microarray
Form: double-stranded DNA, one strand shown
Matrix: in vitro
Tested at: 250 nM
Setting: 60-bp whole probe
Added: salmon DNA 0.4 mg/ml
Reference: random background probes
Reading: higher = stronger binding
Measurement: log fluorescence
Constant ends, left off below: GCCTAGCAC … GTCTTGATTCGCTTGACGCTGCTG
Residues (chain): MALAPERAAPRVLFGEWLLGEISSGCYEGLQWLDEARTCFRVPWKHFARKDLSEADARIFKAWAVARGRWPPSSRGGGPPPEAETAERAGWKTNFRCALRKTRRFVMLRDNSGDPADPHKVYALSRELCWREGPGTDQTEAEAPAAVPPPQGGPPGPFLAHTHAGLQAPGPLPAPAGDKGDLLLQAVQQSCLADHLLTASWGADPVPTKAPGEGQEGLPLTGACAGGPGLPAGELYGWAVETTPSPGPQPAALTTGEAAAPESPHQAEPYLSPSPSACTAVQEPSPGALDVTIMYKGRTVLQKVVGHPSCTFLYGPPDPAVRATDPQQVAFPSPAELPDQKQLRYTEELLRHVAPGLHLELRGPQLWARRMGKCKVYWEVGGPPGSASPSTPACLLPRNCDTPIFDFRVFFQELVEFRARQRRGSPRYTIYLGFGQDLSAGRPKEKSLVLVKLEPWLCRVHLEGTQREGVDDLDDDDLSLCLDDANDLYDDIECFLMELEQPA
CTAGTTTTCATTTTCTGAATGTGCTAG: 5.95 z-score
TTCGGACTGCTTTTCCTTTAGTGCTAG: 0.565 z-score
TAAGATATCAGTCTCGATTAGTGCTAG: 1.79 z-score
TTAGGTTTGGGTATCGGTTAGTGCTAG: 1.12 z-score
CGTTTTTCATTTTTTTTTTCGTGCTAG: 4.87 z-score
TTAGGTATCCTCTTCCTTTAGTGCTAG: 0.265 z-score
TTAGGACTGGGGAATCGGTTAGTGCTA: 0.0951 z-score
GACGGACTGCTACTGCTGGCGTGCTAG: -1.09 z-score
TTAGGACTGCTTATTCTTTAGTGCTAG: 0.0078 z-score
AATCATTTTAGTTTTCATTAGTGCTAG: 1.35 z-score
GACGATATCAGTGTCGAGACGTGCTAG: -0.368 z-score
TTAGAACTGGGGTTTCGACTAGTGCTA: 2.05 z-score
GACGGTATCGACTTTAGGGACGTGCTA: 0.329 z-score
TCTCCTTTCCAAATACCCTCGTGCTAG: 1.75 z-score
TCAAGTTTCCATTTTCTACTGTGCTAG: 6.86 z-score
GACAATCTCAGTCTCGAGACGTGCTAG: 0.548 z-score
GACGGTTTCGGGAATGGGGACGTGCTA: 3.39 z-score
GCAAGAGGAAAGGAACATCAGTGCTAG: -0.575 z-score
TTAGATCTCAGTTGCGATTAGTGCTAG: 0.818 z-score
TTAGGACTGGGGTTGCGGTTAGTGCTA: -0.041 z-score
GACGATTTCGGGTATCGAGACGTGCTA: 0.883 z-score
TACGGACTGGGGACTGGGGACGTGCTA: -0.586 z-score
GACGAACTCGGGTTTCGAGACGTGCTA: 3.37 z-score
TTAGTACTGGACTTTCGGTTAGTGCTA: 1.04 z-score

Series 4
Target: RNA binding protein fox-1 homolog 2, RRM domain, GST-SBP tag (RBFOX2, Homo sapiens, UniProt O43251-10, residues 100-194)
Method: RNA Bind-n-Seq
Form: RNA
Matrix: in vitro
Tested at: 365 nM
Setting: natural RNA segment, single round, ends assumed
Reference: no-protein control
Reading: higher = stronger binding
Measurement: RBNS enrichment (R)
Constant ends, left off below: GGGAGUUCUACAGUCCGACGAUC … UGGAAUUCUCGGGUGCCAA
Residues (chain): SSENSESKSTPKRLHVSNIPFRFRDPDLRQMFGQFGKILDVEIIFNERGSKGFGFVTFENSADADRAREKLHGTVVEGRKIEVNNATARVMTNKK
CAGAUGACCUGCAGAAACAGAACUGUUCAGUAUUGGUUGGACUGCUCAUGGAUUUUGUAGCUGUUUAAAAAAAAAAAAAAGGUAGCUGUGAUACAAACCCCAGGACACCC: 0.368
ACAAUGACACUCAGCGGUCAUGUCUGGACAUGAGUGCCCAGGGAAUAUGCCCAAGCUAUGCCUUGUCCUCUUGUCCUGUUUGCAUUUCACUGGGAGCUUGCACUAUGCAG: 0.552
ACUUCUCUUUAUAGGUUUCAGGUCUCCUAUGGGUGCCUGGGAAGUCCUUGAAAGUGGACUGUUCUCAGGCUUGACCUGCCCCACCCCAUCCCCGCGGUUGAGGCUGUGGG: 0.255
CACCCCACCUUUUUCCUUCUCCCCAAUUACUCCCCUGAAUCAAUGUACAAAUCAGCACCCACAUCCCCUUUCUUGACAAAUGAUUUUUCUAGAGAACUAUGUUCUUCCCU: 1.69
GGGAACAACCCUCCCCCUUUCCAUUCAUAAGUCCAAAUGUAAAUAAACGUAUGCAGAAUGUUAGCGUUCGACUGUCUGAUGUAUUGGCUUUCCUGGGCGGCCCCUGCCUU: 1.07
AAGUACAUUUUUAUAUGUCAGUUGCUGCCCUUCACACUACCAGGCCCUGCAGCCACAGUGUUCUGUUGGAGAAACUUGGGGAAGUGUUUUCUGAACCAGUUCUUUUUCUU: 0.27
AGGGCUGGGCCACUGCACAGUUUGUCUGUCCCCGUUGGACUCUUGAGCUCCUCUGGGAAGGCCUUUCCCUUGCCGGCUGUGCAUUGUGGCCAGGACUGGUAGCAACAGAG: 0.343
CAUAGGGAGGGCUCUGCAUAGCACCUGCUAUAGCGGUGUCAUGUUGGAUCGCUUUUGUGACUGUUCAUCUGUCCUUGACAGUGGCUGUCAUCUUGACUACUUUGUUGAUU: 0.309
UCAGAAGGCUGUCUGGCACCCAGUGUCCUAGCCAGGCCAAGUAUAUGAGAAAGGUAAGUCCAUUUUCCCCUUCAGGUCCUCAGUGGAUUACUUAACCACUGCUGUCCCUC: 0.257
AGGGUGGCCUUGAAGAGGCCAAAGGAAUGUCCAUUUGCUGAGUUUCCCUUCCUUAUGUCUCCAGUCUGGUGCCAGGUAGUGGAGUAAAAAAGGAGACAGUUUAUUUUUUU: 0.779
CUCAGGUAGUGAUGAAUUAGUUGCUGUCACAAAAGGAGGGAAGUAGCACCCAAAUUAAGUUGCUUAAGAGAGGAAAUGUACAUCUUGUAUAACUUAGGGAGCGAAGAAAA: 0.494
GCCACCACACCAUCACCAUCGACAGAACAGUCCUUAAUCCAGAAACCUGAAAUGAAGGAAGAGGAGACUCUGCGCAGAGCACUUUGGGUCCGGAGGGCGAGACUCCGGCG: 0.343

Repeated from above (series 1):
ACCAUGCAGGUGGGCAGCUUUGGGAAGUGGGGCAAGGGGGGGAUAGGGAGGGGGGUAACACUUUGGGAACAGGUGGUCCCAGGUCGUUUC: 0.0646
GUCCUGUGCUACACAUCGUAUGUACCGAAUCGGAAAAAAAGGUUUUUGGAAAAAAAGGAAAGUAUUAUGUUACGCCGUUCGGAUCUGCAC: -1.6
CCUGUGCUACACAUCGUAUGUACCGAAUCGGUUUUUUGGGGUUUUUUGGGGUUUUUUGGGAAAGUAUUAUGUUACGCCGUUCGGAUCUGC: 0.584
ACCAUGCAGGUGGGCAUCUUUGGGAAGUGGGGCAAGGGGGGGAUAGGGAGGGAGGUAACACUUUGGGAACAGGUGGUCCCAGGUCGUUUC: 0.332
UGGCCCUGGUGGCAUGCGGGGAGGAAGAGGUGGCCUCAUGGAUCGUGGUGGUCCCGGUGGAAUGUUCAGAGGUGGCUGUGGUGGAGACAG: -0.152
CACAGACAACACGCACCCACACAGACACAGAGGGAAGGGGUUGGGAUGGGGACAGGGUGCACAGCAGGGCGGGGUAGGACCCCAAACCCU: -1.79
UGGGAGGUGGAUUUUGUUUAUUUUUUCAGCUCAUUUCCAGGGGUGGGAAUUUUUUUUUAAUAUGUGUCAUGAAUAAAGUUGUUUUUGAAA: -0.269
UCAAGUCCUGUGCUACACAUCGUAUGUACCGAAUCGGGAAGGGGAAGGAAGGGGAAAGUAUUAUGUUACGCCGUUCGGAUCUGCACUUCC: -0.28
CCUCAAGUCCUGUGCUACACAUCGUAUGUACCGAAUCGGGGUUGGUUGGUUGGAAAGUAUUAUGUUACGCCGUUCGGAUCUGCACUUCCA: -0.353
